# Assay results of several laboratories.
# “And” joins repeats or separate records; there may be more than shown. ± marks the error that the study gave.
# Cacna1b: Voltage-dependent N-type calcium channel subunit alpha-1B (Cacna1b, Rattus norvegicus, UniProt Q02294)
# UniProt Q02294, sequence (whole entry, looked up): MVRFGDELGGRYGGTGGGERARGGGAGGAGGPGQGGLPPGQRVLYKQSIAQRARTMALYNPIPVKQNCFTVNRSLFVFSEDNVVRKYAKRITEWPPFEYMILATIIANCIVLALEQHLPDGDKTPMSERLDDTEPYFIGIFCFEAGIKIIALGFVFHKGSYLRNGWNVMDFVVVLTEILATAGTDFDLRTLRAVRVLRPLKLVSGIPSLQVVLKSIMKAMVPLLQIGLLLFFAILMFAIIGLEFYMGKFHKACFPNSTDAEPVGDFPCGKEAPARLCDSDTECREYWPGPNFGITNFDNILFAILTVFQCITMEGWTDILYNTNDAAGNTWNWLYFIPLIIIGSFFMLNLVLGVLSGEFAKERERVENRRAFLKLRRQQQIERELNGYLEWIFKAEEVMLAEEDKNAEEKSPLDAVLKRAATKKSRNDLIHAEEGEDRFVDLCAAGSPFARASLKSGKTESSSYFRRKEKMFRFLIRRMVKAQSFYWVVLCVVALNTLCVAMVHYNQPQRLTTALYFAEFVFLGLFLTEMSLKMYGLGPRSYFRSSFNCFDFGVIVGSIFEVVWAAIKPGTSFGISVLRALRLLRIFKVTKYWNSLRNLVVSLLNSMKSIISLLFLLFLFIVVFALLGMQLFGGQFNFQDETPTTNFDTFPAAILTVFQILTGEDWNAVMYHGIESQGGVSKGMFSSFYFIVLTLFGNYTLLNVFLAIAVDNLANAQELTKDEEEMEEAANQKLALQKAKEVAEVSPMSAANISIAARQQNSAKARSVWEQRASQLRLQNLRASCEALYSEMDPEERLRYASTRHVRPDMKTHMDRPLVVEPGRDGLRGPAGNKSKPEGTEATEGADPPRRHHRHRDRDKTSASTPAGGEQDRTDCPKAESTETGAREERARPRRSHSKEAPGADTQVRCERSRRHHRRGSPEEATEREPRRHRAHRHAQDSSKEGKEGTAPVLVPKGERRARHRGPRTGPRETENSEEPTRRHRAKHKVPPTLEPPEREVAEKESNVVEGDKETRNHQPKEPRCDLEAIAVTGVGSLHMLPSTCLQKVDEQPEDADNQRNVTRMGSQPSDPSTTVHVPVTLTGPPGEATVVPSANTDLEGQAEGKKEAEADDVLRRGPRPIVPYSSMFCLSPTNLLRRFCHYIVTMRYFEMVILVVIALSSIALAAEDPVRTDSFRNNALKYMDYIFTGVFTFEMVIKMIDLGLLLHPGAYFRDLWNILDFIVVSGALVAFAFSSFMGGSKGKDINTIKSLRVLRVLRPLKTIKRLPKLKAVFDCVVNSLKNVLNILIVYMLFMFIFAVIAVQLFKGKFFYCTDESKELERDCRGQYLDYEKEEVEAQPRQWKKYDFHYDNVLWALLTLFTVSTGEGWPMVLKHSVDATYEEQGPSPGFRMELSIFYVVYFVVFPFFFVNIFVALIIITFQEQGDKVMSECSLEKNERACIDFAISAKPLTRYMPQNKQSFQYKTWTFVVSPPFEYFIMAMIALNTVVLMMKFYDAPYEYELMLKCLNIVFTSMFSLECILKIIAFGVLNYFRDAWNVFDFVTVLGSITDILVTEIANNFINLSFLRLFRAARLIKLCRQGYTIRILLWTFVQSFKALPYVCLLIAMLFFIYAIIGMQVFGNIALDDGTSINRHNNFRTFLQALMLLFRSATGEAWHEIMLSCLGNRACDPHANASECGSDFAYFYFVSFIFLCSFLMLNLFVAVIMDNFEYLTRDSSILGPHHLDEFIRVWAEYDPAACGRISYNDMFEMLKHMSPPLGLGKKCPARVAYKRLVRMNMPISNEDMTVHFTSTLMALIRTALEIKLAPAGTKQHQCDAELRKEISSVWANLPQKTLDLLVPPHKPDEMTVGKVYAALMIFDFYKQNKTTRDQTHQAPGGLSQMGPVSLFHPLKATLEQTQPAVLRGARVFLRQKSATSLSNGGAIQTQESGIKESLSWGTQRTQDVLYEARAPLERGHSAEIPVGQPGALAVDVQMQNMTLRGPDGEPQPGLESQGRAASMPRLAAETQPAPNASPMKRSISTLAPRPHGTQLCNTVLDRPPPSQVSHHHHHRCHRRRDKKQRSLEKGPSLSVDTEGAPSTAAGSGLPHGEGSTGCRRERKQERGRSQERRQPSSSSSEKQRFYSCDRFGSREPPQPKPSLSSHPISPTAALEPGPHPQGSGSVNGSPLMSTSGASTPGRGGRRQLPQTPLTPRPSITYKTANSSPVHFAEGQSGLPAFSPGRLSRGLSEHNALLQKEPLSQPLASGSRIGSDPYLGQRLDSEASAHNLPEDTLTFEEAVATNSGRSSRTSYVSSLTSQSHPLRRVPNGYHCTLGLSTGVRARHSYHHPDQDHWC
# SRD5A1: 3-oxo-5-alpha-steroid 4-dehydrogenase 1 (SRD5A1, Homo sapiens, UniProt P18405)
# AGER: Advanced glycosylation end product-specific receptor (AGER, Homo sapiens, UniProt Q15109)
# UniProt Q15109, sequence (whole entry, looked up): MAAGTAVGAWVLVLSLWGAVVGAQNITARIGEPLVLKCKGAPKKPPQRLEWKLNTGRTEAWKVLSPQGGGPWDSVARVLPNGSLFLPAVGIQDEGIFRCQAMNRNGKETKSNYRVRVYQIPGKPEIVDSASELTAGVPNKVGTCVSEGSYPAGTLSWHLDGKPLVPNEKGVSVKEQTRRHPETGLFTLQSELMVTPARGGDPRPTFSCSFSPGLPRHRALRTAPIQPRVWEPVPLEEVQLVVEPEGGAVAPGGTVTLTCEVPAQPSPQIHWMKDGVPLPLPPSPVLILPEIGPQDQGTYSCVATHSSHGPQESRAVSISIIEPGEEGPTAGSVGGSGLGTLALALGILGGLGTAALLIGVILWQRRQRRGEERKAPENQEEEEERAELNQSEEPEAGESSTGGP
# JAK2: Tyrosine-protein kinase JAK2 (JAK2, Homo sapiens, UniProt O60674)
# UniProt O60674, sequence (whole entry, looked up): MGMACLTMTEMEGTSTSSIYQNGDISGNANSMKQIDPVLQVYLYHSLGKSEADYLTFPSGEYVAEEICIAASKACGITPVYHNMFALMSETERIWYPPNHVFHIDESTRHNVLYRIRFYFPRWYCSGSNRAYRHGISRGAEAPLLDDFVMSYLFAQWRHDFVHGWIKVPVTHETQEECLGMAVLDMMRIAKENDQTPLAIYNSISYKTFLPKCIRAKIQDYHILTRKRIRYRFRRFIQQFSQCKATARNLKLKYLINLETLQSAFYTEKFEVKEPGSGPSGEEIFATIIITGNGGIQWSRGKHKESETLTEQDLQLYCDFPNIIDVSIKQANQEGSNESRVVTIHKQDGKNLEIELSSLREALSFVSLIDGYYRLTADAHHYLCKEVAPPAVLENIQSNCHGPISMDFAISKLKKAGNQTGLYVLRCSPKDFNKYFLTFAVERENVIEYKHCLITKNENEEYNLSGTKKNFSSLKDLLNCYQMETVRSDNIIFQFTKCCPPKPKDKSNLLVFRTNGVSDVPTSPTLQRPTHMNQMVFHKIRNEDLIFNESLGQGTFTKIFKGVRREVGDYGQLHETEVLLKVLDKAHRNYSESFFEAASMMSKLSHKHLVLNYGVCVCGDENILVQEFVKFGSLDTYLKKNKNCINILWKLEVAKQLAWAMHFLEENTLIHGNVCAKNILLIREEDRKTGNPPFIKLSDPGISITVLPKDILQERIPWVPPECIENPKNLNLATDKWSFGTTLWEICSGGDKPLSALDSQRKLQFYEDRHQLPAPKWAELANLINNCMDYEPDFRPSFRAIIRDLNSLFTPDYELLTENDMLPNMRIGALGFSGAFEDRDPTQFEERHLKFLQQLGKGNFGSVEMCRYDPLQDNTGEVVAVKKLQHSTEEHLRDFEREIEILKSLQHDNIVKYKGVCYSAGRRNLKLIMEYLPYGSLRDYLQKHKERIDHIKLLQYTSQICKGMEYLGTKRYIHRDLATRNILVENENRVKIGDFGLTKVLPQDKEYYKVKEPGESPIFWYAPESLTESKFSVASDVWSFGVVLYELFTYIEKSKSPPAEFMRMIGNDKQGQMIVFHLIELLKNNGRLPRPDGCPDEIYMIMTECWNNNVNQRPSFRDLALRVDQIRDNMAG
# CTSB: Cathepsin B (CTSB, Homo sapiens, UniProt P07858)
# SIRT2: NAD-dependent protein deacetylase sirtuin-2 (SIRT2, Homo sapiens, UniProt Q8IXJ6)
# UniProt Q9UM07, sequence (whole entry, looked up): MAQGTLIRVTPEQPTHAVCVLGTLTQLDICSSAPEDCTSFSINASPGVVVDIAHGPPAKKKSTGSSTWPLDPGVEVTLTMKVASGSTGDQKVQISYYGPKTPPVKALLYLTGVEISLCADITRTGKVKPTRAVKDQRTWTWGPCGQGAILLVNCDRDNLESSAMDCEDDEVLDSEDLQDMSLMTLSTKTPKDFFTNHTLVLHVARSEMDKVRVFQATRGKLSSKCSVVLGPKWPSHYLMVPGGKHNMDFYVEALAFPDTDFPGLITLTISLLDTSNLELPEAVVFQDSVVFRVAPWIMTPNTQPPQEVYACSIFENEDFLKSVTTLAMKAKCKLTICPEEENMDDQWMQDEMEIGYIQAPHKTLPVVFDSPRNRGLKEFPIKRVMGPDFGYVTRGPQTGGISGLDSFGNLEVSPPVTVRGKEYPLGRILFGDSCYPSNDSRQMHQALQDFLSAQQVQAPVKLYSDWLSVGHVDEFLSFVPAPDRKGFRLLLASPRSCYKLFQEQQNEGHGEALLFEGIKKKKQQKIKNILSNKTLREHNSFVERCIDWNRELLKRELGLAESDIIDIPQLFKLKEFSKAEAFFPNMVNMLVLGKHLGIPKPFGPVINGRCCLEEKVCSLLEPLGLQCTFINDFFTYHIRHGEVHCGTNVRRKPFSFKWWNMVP
# UniProt Q8IXJ6, sequence (whole entry, looked up): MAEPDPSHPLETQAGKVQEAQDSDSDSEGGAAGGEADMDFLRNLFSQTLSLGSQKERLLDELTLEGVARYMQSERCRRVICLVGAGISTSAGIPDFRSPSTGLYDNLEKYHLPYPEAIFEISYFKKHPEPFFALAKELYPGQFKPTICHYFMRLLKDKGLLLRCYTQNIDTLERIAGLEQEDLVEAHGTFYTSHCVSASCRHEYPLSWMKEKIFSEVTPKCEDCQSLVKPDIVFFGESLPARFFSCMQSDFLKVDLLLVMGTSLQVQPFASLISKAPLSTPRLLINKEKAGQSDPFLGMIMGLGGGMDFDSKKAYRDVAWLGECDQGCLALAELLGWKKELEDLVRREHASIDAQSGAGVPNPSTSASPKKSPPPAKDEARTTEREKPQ
SMILES,target,test,test system,setting,inhibition
CCn1cc(C(=O)O)c(=O)c2c(N)c(F)c(NC3CCCCC3)cc21,"[Pyruvate dehydrogenase (acetyl-transferring)] kinase isozyme 2, mitochondrial (PDK2, Homo sapiens, UniProt Q15119)",kinase activity,,"0.1 µM, added: ATP at Km",-1.1%
COCC(=O)N1CCc2cc(-c3csc(NC(=O)c4cc(OC)cc(OC)c4)n3)ccc21,Cacna1b,cell-free assay,,10 µM,-17%
CC(=O)Oc1ccc(/C=C/C(=O)Oc2cc(C(F)(F)F)cc(C(F)(F)F)c2)cc1OC(C)=O,SRD5A1,"enzyme activity in cells, inhibitor",HaCaT,25 µM,38.6%
Brc1ccccc1-c1nnc(CSc2nnnn2-c2ccccc2)o1,"D(1B) dopamine receptor (DRD5, Homo sapiens, UniProt P21918)","ligand displacement, radioligand",,10 µM,12%
Cc1[nH]nc2c1N=C(c1ccccc1Cl)c1cnc(N3CCOCC3)cc1N2,Cacna1b,ligand displacement,,10 µM,3%
C/C=C/C(=O)Nc1ccc2nc(NCCCCCN(C)C)nc(NCCCCCCN(C)C)c2c1,"DNA (cytosine-5)-methyltransferase 3B, with DNMT3L (DNMT3B, Homo sapiens, UniProt Q9UBC3)",enzyme activity,,50 µM,-21%
O=C1CO[C@H](CNC(=O)C2(c3ccc(Cl)cc3)CC2)CN1C1Cc2ccccc2C1,"C-C chemokine receptor type 1 (CCR1, Homo sapiens, UniProt P32246)","β-arrestin recruitment, antagonist",,1 µM,4%
O=C(Nc1ccc(F)cc1)Nc1ccc(C2CC(c3ccc(Cl)cc3)=NN2)cc1 (centres unmarked),AGER,,,100 µM,35%
O=C(NCCCCc1ccccc1)n1c(=O)oc2cc(-c3ccc(F)cc3)ccc21,"Caspase-3 (CASP3, Homo sapiens, UniProt P42574)","enzyme activity, inhibitor",,10 µM,1.9%
Cc1cnc2nc1Nc1cccc(c1)COCc1cc(ccc1OCCN1CCOCC1)N2,JAK2,"inhibitor, Z'-LYTE kinase",,12.35 nM,27.5% and 26.6% and 33.1%
C[C@H](NC(=O)[C@H](CC(=O)NCC(C)(C)C)NC(=O)CCc1ccccc1)C(=O)NCc1ccccc1Cl,CTSB,"enzyme activity, inhibitor",,100 µM,-7%
CCCCCCN(O)C(=O)CCCCC[C@@H]1NC(=O)[C@H]([C@@H](C)CC)NC(=O)[C@H](Cc2ccccc2C(F)(F)F)NC(=O)CCSCc2cccc(n2)CSCCCNC1=O,"Histone deacetylase 2 (HDAC2, Homo sapiens, UniProt Q92769)","enzyme activity, inhibitor, fluorogenic",,30 µM,45%
O=C1c2sc(-c3ccc(N4CCC(F)C4)nc3F)nc2CCN1c1cccnc1 (centres unmarked),"Amine oxidase [flavin-containing] A (Maoa, Rattus norvegicus, UniProt P21396)","ligand displacement, radioligand",,1 µM,2%
O=C(NC1CCC1)[C@H](Cc1c[nH]c2ccccc12)NC(=O)[C@H](CCCCNC(=S)Nc1ccc(F)c(O)c1F)NS(=O)(=O)c1cccc(F)c1,SIRT2,"enzyme activity, inhibitor",,30 µM,26%
COc1ccc2nc(C)ccc2c1Nc1sn(C)c(=O)c1C#N,"ADP-ribosyl cyclase/cyclic ADP-ribose hydrolase 1 (CD38, Homo sapiens, UniProt P28907)","enzyme activity, inhibitor",,10 µM,0%
C=CC(=O)Nc1cccc(-c2cnc3[nH]cc(C(=O)NC(C)(C)C)c3n2)c1,CK1,,,0.1 µM,8% and 9%
COC(=O)/C=C/c1ccc(O)c(O)c1,SRD5A1,"enzyme activity in cells, inhibitor",HaCaT,50 µM,36.2%
Cc1cnc2nc1Nc1cc(F)cc(c1)COC/C=C/COCc1cc(ccc1OCCN1CCCC1)N2,JAK2,"inhibitor, Z'-LYTE kinase",,111.1 nM,93.8% and 91.4%
CCCCC(=O)N1N=C(c2ccc(NC(=O)Nc3ccc(Cl)cc3)cc2)CC1c1ccc(Cl)cc1 (centres unmarked),AGER,,,100 µM,41%
O=C(Nc1ccc(C(F)F)cc1)[C@H](CC1CCCCC1)Nc1nn2c(=O)ccnc2s1,"Tyrosine-protein phosphatase non-receptor type 7 (PTPN7, Homo sapiens, UniProt P35236)","enzyme activity, inhibitor",,10 µM,-1%
COc1ccc(NC(=O)Nc2ccc(C3=NNC(c4ccc(Cl)cc4)C3)cc2)cc1 (centres unmarked),AGER,,,100 µM,1%
Cc1cnc2nc1Nc1cccc(c1)COC/C=C/COCc1cc(ccc1OCCN1CCOCC1)N2,JAK2,"inhibitor, Z'-LYTE kinase",,3.906 nM,76.2% and 67.3% and 74.8%
Cn1ccc2cc(-n3c(=O)[nH]c4sc5c(c4c3=O)CCCC5)ccc21,"Estrogen receptor (ESR1, Homo sapiens, UniProt P03372)","cell-free assay, radioligand",,10 µM,9%
c1ccc(OC[C@H]2CN(CCN3CCc4ccccc43)CCO2)nc1,"5-hydroxytryptamine receptor 3A (HTR3A, Homo sapiens, UniProt P46098)",radioligand binding,,"concentration not given, added: [3H]GR65630",24%
C[Si](C)(C)C[C@H](CN)CC(=O)O,"Thyrotropin-releasing hormone receptor (TRHR, Homo sapiens, UniProt P34981)","ligand displacement, radioligand",,250 µM,-12%
CN(C)c1ncnc2c1ncn2[C@@H]1O[C@H](CCl)[C@@H](NC(=O)[C@H](CSC23CC4CC(CC(C4)C2)C3)NC(=O)OC(C)(C)C)[C@H]1O,"Aminopeptidase N (ANPEP, Homo sapiens, UniProt P15144)","enzyme activity, inhibitor, fluorescence",,10 µM,0%
Cc1ccc(CNC(=O)C(CCc2ccccc2)NC(=O)C(NC(=O)Cc2cccc(Oc3ccccc3)c2)C(C)O)cc1 (centres unmarked),CTSB,"enzyme activity, inhibitor",,100 µM,-3%
CCCCCCCCCCCCNC(=S)NCCCC[C@H](NC(=O)OCc1ccccc1)C(=O)N1CCC[C@H]1C(=O)N[C@@H](CCCNC(=N)N)C(N)=O,SIRT2,"enzyme activity, inhibitor",,100 µM,40%
Cl.Cl.N[C@@H](C(=O)N1CCCC1)C1CCN(c2nccc3c(-c4ncc(Cl)cc4Cl)cccc23)CC1,"Protein-arginine deiminase type-4 (PADI4, Homo sapiens, UniProt Q9UM07)","enzyme activity, inhibitor",,"306 pM, added: Ca2+ 0.4 mM",3.66% and -3.72% and 3.81%
CN1CCN(Cc2ccc(-c3ccc(CO[C@H]4CCC[C@@H]4NC(=O)c4cc(-c5cnn(C)c5)cnc4N)cc3)cc2)CC1,"5'-AMP-activated protein kinase catalytic subunit alpha-2, with beta2 gamma2 (PRKAA2, Homo sapiens, UniProt P54646)",SelectScreen kinase profiling,,0.1 µM,4%
CC(C)[C@@H]1NC(=O)[C@H](Cc2ccc(O)cc2)NC(=O)[C@H](Cc2ccccc2)NC(=O)[C@H]([C@@H](C)O)NC(=O)[C@@H](Cc2ccc(O)cc2)NC(=O)CSC[C@H](C(=O)NCCOCCOCCOCCOCCOCCOCCC(N)=O)NC(=O)[C@H](C)NC(=O)[C@H](CO)NC(=O)[C@@H]2CCC[C@@H]2NC(=O)[C@H](Cc2c[nH]cn2)NC(=O)[C@H](CCCNC(=N)N)NC(=O)[C@H](Cc2ccc(O)cc2)NC(=O)[C@H]([C@@H](C)O)NC(=O)[C@H](Cc2ccccc2)NC(=O)[C@H]([C@@H](C)O)NC(=O)[C@H](Cc2ccc(O)cc2)NC(=O)[C@H](Cc2ccccc2)NC1=O,"Matrilysin (MMP7, Homo sapiens, UniProt P09237)","enzyme activity, inhibitor",,"concentration not given, high-affinity phase of biphasic curve",~65%
"CC(=O)C12NC(C)(C)CC1(C)C(=O)C1=C2c2c(c3c4n2C(C)(C)CC2=C4C4(CC(C)(C)NC(C)(C4)C2=O)CC3(C)C)C(=O)C(C)(C)N1 (single isomer, unassigned; (+))","Transient receptor potential cation channel subfamily V member 1 (TRPV1, Homo sapiens, UniProt Q8NER1)","ion current, inhibitor, patch clamp",HEK-293T,50 µM,9.26%
Cc1ccc(N(O)/N=N/c2ccc(S(=O)(=O)Nc3nccs3)cc2)cc1,"α-glucosidase, rat intestine",enzyme activity,,"240 µg/mL, added: 4-nitrophenyl α-D-glucopyranoside",40 ± 0.04%
O=C1c2sc(-c3ccc(N4CCC(CO)CC4)nc3F)nc2CCN1c1cccnc1,"Alpha-1B adrenergic receptor (ADRA1B, Homo sapiens, UniProt P35368)","ligand displacement, radioligand",,1 µM,-3%
C[Si]1(C[C@H](CN)CC(=O)O)CCCC1,"Somatostatin receptor type 2 (SSTR2, Homo sapiens, UniProt P30874)","ligand displacement, radioligand",,70 µM,5%

# Some of these lines once more:
SMILES,target,test,test system,setting,inhibition
c1ccc(OC[C@H]2CN(CCN3CCc4ccccc43)CCO2)nc1,"5-hydroxytryptamine receptor 3A (HTR3A, Homo sapiens, UniProt P46098)",radioligand binding,,"concentration not given, added: [3H]GR65630",24%
COc1ccc(NC(=O)Nc2ccc(C3=NNC(c4ccc(Cl)cc4)C3)cc2)cc1 (centres unmarked),AGER,,,100 µM,1%
